Assay results collected from several papers.
Lines come from different studies, so protocols differ. ± marks the error that the study gave.
Organism: Escherichia coli

CCCCCCC/C=C/C(=O)N1C(=O)/C(=C(\O)c2ccc(O)cc2)C(=O)C1CC(C)C (centres unmarked)  MIC (K12 ΔtolC): 25 µg/mL
CC[C@H](C)[C@H](NC(=O)[C@H](CCCCN)NC(=O)[C@H](CC(=O)O)NC(=O)[C@H](CC(C)C)NC(=O)[C@@H](NC(=O)[C@H](CC(N)=O)NC(=O)[C@H](CC(C)C)NC(=O)[C@@H](NC(=O)[C@H](Cc1ccccc1)NC(=O)[C@H](CCCCN)NC(=O)[C@H](CCCCN)NC(=O)CNC(=O)[C@H](C)NC(=O)[C@H](CC(N)=O)NC(=O)[C@H](CCCCN)NC(=O)[C@H](Cc1ccccc1)NC(=O)[C@H](CC(N)=O)NC(=O)[C@H](CCC(=O)O)NC(=O)[C@H](Cc1c[nH]c2ccccc12)NC(=O)[C@H](CC(C)C)NC(=O)[C@@H](N)CO)[C@@H](C)CC)[C@@H](C)CC)C(=O)N[C@@H](CCCNC(=N)N)C(N)=O  MIC (ATCC 8739; overnight, 37 °C, together with: 4.5 mM KCl): 2 µM
CC[C@H](C)[C@H](NC(=O)CNC(=O)[C@H](CC(=O)O)NC(=O)[C@H](CCCNC(=N)N)NC(=O)[C@@H](NC(=O)[C@H](CC(N)=O)NC(=O)[C@H](CCCNC(=N)N)NC(=O)CNC(=O)[C@@H](NC(=O)[C@H](CCC(=O)O)NC(=O)[C@H](CCC(=O)O)NC(=O)[C@@H](NC(=O)[C@H](CCCCN)NC(=O)[C@H](CCCCN)NC(=O)[C@H](Cc1ccccc1)NC(=O)[C@@H](NC(=O)[C@H](CCCCN)NC(=O)[C@H](Cc1c[nH]c2ccccc12)NC(=O)[C@@H](N)CCCNC(=N)N)[C@@H](C)CC)[C@@H](C)CC)C(C)C)C(C)C)C(=O)N[C@H](C(=O)N[C@@H](CCCCN)C(=O)N[C@@H](C)C(=O)NCC(=O)N1CCC[C@H]1C(=O)N[C@@H](C)C(=O)N[C@H](C(=O)N[C@@H](C)C(=O)N[C@H](C(=O)N[C@H](C(=O)NCC(=O)N[C@@H](CCC(N)=O)C(=O)N[C@@H](C)C(=O)N[C@@H](C)C(=O)N[C@H](C(=O)N[C@H](C(=O)N[C@H](C(=O)N[C@@H](CCCCN)C(N)=O)C(C)C)C(C)C)[C@@H](C)O)C(C)C)C(C)C)C(C)C)[C@@H](C)CC  MIC (KCTC 1682, Mueller-Hinton broth; 16 h, 37 °C; growth inhibition over 99%): 2 µM
CC1(C)SC2C(NC(=O)C(NC(=O)C3=C(O)C(Cc4ccco4)NC3=O)c3ccccc3)C(=O)N2C1C(=O)O (centres unmarked)  MIC (broth microdilution; isolate IU 356 A, KPC-3, VIM-1, TEM; together with: clavulanic acid 6 µg/mL): > 200 µg/mL
CC[C@H](C)[C@H](NC(=O)CN)C(=O)NCC(=O)N[C@@H](CCCCN)C(=O)N[C@@H](Cc1ccccc1)C(=O)N[C@@H](CC(C)C)C(=O)N[C@@H](CCCCN)C(=O)N[C@@H](CCCCN)C(=O)N[C@@H](C)C(=O)N[C@@H](CCCCN)C(=O)N[C@@H](CCCCN)C(=O)N[C@@H](Cc1ccccc1)C(=O)NCC(=O)N[C@@H](CCCCN)C(=O)N[C@@H](C)C(=O)N[C@@H](Cc1ccccc1)C(=O)N[C@H](C(=O)N[C@@H](CCCCN)C(=O)N[C@H](C(=O)N[C@@H](CC(C)C)C(=O)N[C@@H](CCCCN)C(=O)N[C@@H](CCCCN)C(N)=O)[C@@H](C)CC)C(C)C  MIC (broth dilution; ATCC 25922, Mueller-Hinton broth; 24 h, 37 °C): 6.3 µM
CC[C@H](C)[C@H](NC(=O)[C@H](CCCNC(=N)N)NC(=O)[C@H](CCCNC(=N)N)NC(=O)[C@H](CCCNC(=N)N)NC(=O)[C@H](CCCNC(=N)N)NC(=O)[C@H](CC(C)C)NC(=O)[C@H](CCCNC(=N)N)NC(=O)[C@H](CO)NC(=O)[C@@H](N)CO)C(=O)N[C@H](C(=O)N[C@@H](CC(C)C)C(=O)N[C@@H](CCCNC(=N)N)C(=O)N[C@@H](CCCNC(=N)N)C(=O)N[C@@H](CCCNC(=N)N)C(=O)N[C@@H](CCCNC(=N)N)C(=O)N[C@@H](Cc1ccccc1)C(=O)N[C@@H](CO)C(=O)N[C@@H](C)C(=O)N[C@@H](Cc1ccc(O)cc1)C(N)=O)C(C)C  MIC (broth microdilution; ATCC 25922; highest value reported): 32 µM
CC[C@H](C)[C@H](NC(=O)CN)C(=O)NCC(=O)N[C@@H](C)C(=O)N[C@H](C(=O)N[C@@H](CC(C)C)C(=O)N[C@@H](CCCCN)C(=O)N[C@H](C(=O)N[C@@H](CC(C)C)C(=O)N[C@H](C(=O)N[C@H](C(=O)NCC(=O)N[C@@H](CC(C)C)C(=O)N1CCC[C@H]1C(=O)N[C@@H](C)C(=O)N[C@@H](CC(C)C)C(=O)N[C@H](C(=O)N[C@@H](CO)C(=O)N[C@@H](Cc1c[nH]c2ccccc12)C(=O)N[C@H](C(=O)N[C@@H](CCCCN)C(=O)N[C@@H](CCCNC(=N)N)C(=O)N[C@@H](CCCCN)C(=O)N[C@@H](CCCNC(=N)N)C(=O)N[C@@H](CCC(N)=O)C(=O)N[C@@H](CCC(N)=O)C(N)=O)[C@@H](C)CC)[C@@H](C)CC)[C@@H](C)O)[C@@H](C)O)C(C)C)C(C)C  MIC (NCCP 16046 carbapenem-resistant): 8 µM
C[C@@H](O)[C@H]1C(=O)N2C(C(=O)O)=C(S[C@@H]3CN[C@H](C(=O)N(C)C)C3)[C@H](C)[C@H]12  MIC (broth microdilution; DH5α with VIM-2 plasmid; compound alone): 4 µg/mL
N=C(N)c1ccc(OCCC(CCOc2ccc(C(=N)N)cc2)c2ccccc2)cc1 (centres unmarked)  MIC (mcr-1; 20 h, compound alone): > 200 µg/mL
CC[C@H](C)[C@H](NC(=O)[C@H](CCCCN)NC(=O)[C@H](CCCCN)NC(=O)CNC(=O)[C@H](CCCCN)NC(=O)[C@H](CC(C)C)NC(=O)[C@H](CCCCN)NC(=O)[C@H](CCCNC(=N)N)NC(=O)[C@@H](NC(=O)[C@H](CC(C)C)NC(=O)[C@H](CCCNC(=N)N)NC(=O)[C@@H](N)CCCNC(=N)N)[C@@H](C)CC)C(=O)N[C@@H](Cc1ccc(O)cc1)C(=O)N[C@@H](CC(C)C)C(=O)N[C@@H](Cc1ccc(O)cc1)C(=O)N[C@@H](Cc1ccccc1)C(=O)N[C@@H](CCCCN)C(=O)N[C@@H](CC(C)C)C(=O)N[C@@H](CCC(N)=O)C(=O)N[C@@H](CC(C)C)C(=O)N[C@@H](CC(C)C)C(=O)N[C@@H](CCCCN)C(=O)N[C@@H](CCCCN)C(N)=O  MIC (broth microdilution; KCTC 1682, Mueller-Hinton broth; 24 h, 37 °C): 8 µM
CC1=C(C(=O)O)N2C(=O)[C@@H](NC(=O)[C@H](N)c3ccccc3)[C@H]2SC1  MIC: 62.5 µg/mL
CC(C)Oc1c(NC(=O)c2ccc(NC(=O)[C@H](CC(N)=O)NC(=O)c3cc(F)c(/N=N/c4c(F)cccc4F)c(F)c3)cc2)ccc(C(=O)N/N=C/c2ccc(C(=O)O)s2)c1O  MIC (BW25113; 18 h, 37 °C, dark-adapted state): > 6.4 µg/mL
CC[C@H](C)[C@H](NC(=O)[C@H](C)NC(=O)[C@@H](N)CCCCN)C(=O)N[C@H](C(=O)N[C@@H](CCC(N)=O)C(=O)N[C@@H](CCCNC(=N)N)C(=O)N[C@H](C(=O)N[C@@H](CCCCN)C(=O)N[C@@H](CC(=O)O)C(=O)N[C@@H](Cc1ccccc1)C(=O)N[C@@H](CC(C)C)C(=O)N[C@@H](CCCNC(=N)N)C(N)=O)[C@@H](C)CC)C(C)C  MIC (broth microdilution; K12; 16 h, 37 °C): 120 ± 43 µM
CC(C)C[C@H](NC(=O)[C@H](Cc1ccc(O)cc1)NC(=O)[C@@H]1CCCN1C(=O)[C@@H]1CCCN1C(=O)[C@H](CCCCN)NC(=O)[C@H](CC(=O)O)NC(=O)[C@@H](N)C(C)C)C(=O)N1CCC[C@H]1C(=O)N[C@@H](CCCNC(=N)N)C(=O)N1CCC[C@H]1C(=O)N[C@@H](CCCNC(=N)N)C(=O)N1CCC[C@H]1C(=O)N1CCC[C@H]1C(=O)N[C@@H](CCCNC(=N)N)C(=O)N[C@@H](CCCNC(=N)N)C(N)=O  MIC (broth microdilution; MRE600; 16 h, 37 °C, 25% Mueller-Hinton broth): 2 µg/mL
CC[C@@H](C)[C@@H](N)C(=O)N[C@@H](C(=O)N[C@H](Cc1ccc(O)cc1)C(=O)N[C@@H](C(=O)N[C@H](CCN)C(=O)N[C@H](CC(C)C)C(=O)N[C@H](CO)C(=O)N[C@H](CCN)C(=O)N[C@@H](C(=O)N[C@H](CCN)C(=O)N[C@H](Cc1c[nH]cn1)C(=O)N[C@H](CCN)C(=O)N[C@H](C)C(=O)N[C@H](CCN)C(=O)N[C@H](CCN)C(N)=O)[C@H](C)CC)[C@H](C)CC)[C@H](C)CC  MIC (broth microdilution; CDC 0015, Mueller-Hinton broth): 4 µg/mL
CC1(C)S[C@@H]2[C@H](NC(=O)C(C(=O)O)c3ccccc3)C(=O)N2[C@H]1C(=O)O (some centres unmarked)  MIC (broth microdilution; JW0790-2 fiu deletion mutant; ferric iron uptake gene): 6.25 µg/mL
Cc1ccc2[nH]c3c(c2c1)CCCC3NCCc1ccc(O)cc1 (centres unmarked)  MIC (broth microdilution; MB5746 efflux-deficient hyperpermeable): 16 µg/mL
CC[C@H](C)[C@H](NC(=O)CNC(=O)[C@H](CC(=O)O)NC(=O)[C@H](CCCNC(=N)N)NC(=O)[C@@H](NC(=O)[C@H](CC(N)=O)NC(=O)[C@H](CCCNC(=N)N)NC(=O)CNC(=O)[C@@H](NC(=O)[C@H](CCCCN)NC(=O)[C@H](CCC(=O)O)NC(=O)[C@@H](NC(=O)[C@H](CCCCN)NC(=O)[C@H](CCCCN)NC(=O)[C@H](Cc1ccccc1)NC(=O)[C@@H](NC(=O)[C@H](CCCCN)NC(=O)[C@H](Cc1c[nH]c2ccccc12)NC(=O)[C@@H](N)CCCNC(=N)N)[C@@H](C)CC)[C@@H](C)CC)C(C)C)C(C)C)C(=O)N[C@H](C(=O)N[C@@H](CCCCN)C(=O)N[C@@H](C)C(=O)NCC(=O)N1CCC[C@H]1C(=O)N[C@@H](C)C(=O)N[C@H](C(=O)N[C@@H](C)C(=O)N[C@H](C(=O)N[C@H](C(=O)NCC(=O)N[C@@H](CCC(N)=O)C(=O)N[C@@H](C)C(=O)N[C@@H](C)C(=O)N[C@H](C(=O)N[C@H](C(=O)N[C@H](C(=O)N[C@@H](CCCCN)C(N)=O)C(C)C)C(C)C)[C@@H](C)O)C(C)C)C(C)C)C(C)C)[C@@H](C)CC  MIC (K1 ATCC 700973, Mueller-Hinton broth; 16 h, 37 °C; growth inhibition over 99%): 1 µM
CC1(C)CC[C@]2(C(=O)O)CC[C@]3(C)C(=CC[C@@H]4[C@@]5(C)CC[C@H](O)C(C)(C)[C@@H]5CC[C@]43C)[C@@H]2C1  MIC (E4, NDM-5/OXA-1): 256 µg/mL
CC[C@H](C)CCCCC(=O)N[C@@H](CCN)C(=O)N[C@H](C(=O)N[C@@H](CCN)C(=O)N[C@H]1CCNC(=O)[C@H]([C@@H](C)O)NC(=O)[C@H](CCN)NC(=O)[C@H](CCN)NC(=O)[C@H](CC(C)C)NC(=O)[C@@H](Cc2ccccc2)NC(=O)[C@H](CCN)NC1=O)[C@@H](C)O  MIC (broth microdilution; ATCC 15597; 24 h, 37 °C): 2 µg/mL

A few entries again:
Cc1ccc2[nH]c3c(c2c1)CCCC3NCCc1ccc(O)cc1 (centres unmarked)  MIC (broth microdilution; MB5746 efflux-deficient hyperpermeable): 16 µg/mL
CC[C@H](C)[C@H](NC(=O)CNC(=O)[C@H](CC(=O)O)NC(=O)[C@H](CCCNC(=N)N)NC(=O)[C@@H](NC(=O)[C@H](CC(N)=O)NC(=O)[C@H](CCCNC(=N)N)NC(=O)CNC(=O)[C@@H](NC(=O)[C@H](CCCCN)NC(=O)[C@H](CCC(=O)O)NC(=O)[C@@H](NC(=O)[C@H](CCCCN)NC(=O)[C@H](CCCCN)NC(=O)[C@H](Cc1ccccc1)NC(=O)[C@@H](NC(=O)[C@H](CCCCN)NC(=O)[C@H](Cc1c[nH]c2ccccc12)NC(=O)[C@@H](N)CCCNC(=N)N)[C@@H](C)CC)[C@@H](C)CC)C(C)C)C(C)C)C(=O)N[C@H](C(=O)N[C@@H](CCCCN)C(=O)N[C@@H](C)C(=O)NCC(=O)N1CCC[C@H]1C(=O)N[C@@H](C)C(=O)N[C@H](C(=O)N[C@@H](C)C(=O)N[C@H](C(=O)N[C@H](C(=O)NCC(=O)N[C@@H](CCC(N)=O)C(=O)N[C@@H](C)C(=O)N[C@@H](C)C(=O)N[C@H](C(=O)N[C@H](C(=O)N[C@H](C(=O)N[C@@H](CCCCN)C(N)=O)C(C)C)C(C)C)[C@@H](C)O)C(C)C)C(C)C)C(C)C)[C@@H](C)CC  MIC (K1 ATCC 700973, Mueller-Hinton broth; 16 h, 37 °C; growth inhibition over 99%): 1 µM
CC1(C)CC[C@]2(C(=O)O)CC[C@]3(C)C(=CC[C@@H]4[C@@]5(C)CC[C@H](O)C(C)(C)[C@@H]5CC[C@]43C)[C@@H]2C1  MIC (E4, NDM-5/OXA-1): 256 µg/mL
